Experimental data from different studies.
Parts stem from different laboratories: compare values within a part only.
Chain of UniProt P21728 (whole entry, looked up): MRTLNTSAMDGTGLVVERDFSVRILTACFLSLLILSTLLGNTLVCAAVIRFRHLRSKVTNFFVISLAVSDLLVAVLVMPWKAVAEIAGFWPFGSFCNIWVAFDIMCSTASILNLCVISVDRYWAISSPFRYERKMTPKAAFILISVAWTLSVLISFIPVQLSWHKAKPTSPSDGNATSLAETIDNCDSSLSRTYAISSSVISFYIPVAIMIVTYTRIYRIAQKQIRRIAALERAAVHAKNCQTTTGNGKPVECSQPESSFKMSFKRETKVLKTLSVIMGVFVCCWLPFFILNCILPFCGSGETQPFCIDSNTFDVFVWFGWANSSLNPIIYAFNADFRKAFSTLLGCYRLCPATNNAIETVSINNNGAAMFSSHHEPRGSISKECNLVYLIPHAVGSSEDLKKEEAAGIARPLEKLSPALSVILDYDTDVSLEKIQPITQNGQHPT
Chain of UniProt P35462 (whole entry, looked up): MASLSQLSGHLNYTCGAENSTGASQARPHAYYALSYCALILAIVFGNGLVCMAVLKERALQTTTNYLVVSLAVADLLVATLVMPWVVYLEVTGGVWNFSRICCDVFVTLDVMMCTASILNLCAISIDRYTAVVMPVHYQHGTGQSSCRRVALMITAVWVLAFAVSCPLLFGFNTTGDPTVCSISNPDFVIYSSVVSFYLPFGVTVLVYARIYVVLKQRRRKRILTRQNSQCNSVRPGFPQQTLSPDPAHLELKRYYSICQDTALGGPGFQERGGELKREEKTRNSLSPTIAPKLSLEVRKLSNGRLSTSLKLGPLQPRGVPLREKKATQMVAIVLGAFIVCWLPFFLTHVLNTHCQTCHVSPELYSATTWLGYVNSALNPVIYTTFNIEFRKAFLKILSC
Chain of UniProt P35368 (whole entry, looked up): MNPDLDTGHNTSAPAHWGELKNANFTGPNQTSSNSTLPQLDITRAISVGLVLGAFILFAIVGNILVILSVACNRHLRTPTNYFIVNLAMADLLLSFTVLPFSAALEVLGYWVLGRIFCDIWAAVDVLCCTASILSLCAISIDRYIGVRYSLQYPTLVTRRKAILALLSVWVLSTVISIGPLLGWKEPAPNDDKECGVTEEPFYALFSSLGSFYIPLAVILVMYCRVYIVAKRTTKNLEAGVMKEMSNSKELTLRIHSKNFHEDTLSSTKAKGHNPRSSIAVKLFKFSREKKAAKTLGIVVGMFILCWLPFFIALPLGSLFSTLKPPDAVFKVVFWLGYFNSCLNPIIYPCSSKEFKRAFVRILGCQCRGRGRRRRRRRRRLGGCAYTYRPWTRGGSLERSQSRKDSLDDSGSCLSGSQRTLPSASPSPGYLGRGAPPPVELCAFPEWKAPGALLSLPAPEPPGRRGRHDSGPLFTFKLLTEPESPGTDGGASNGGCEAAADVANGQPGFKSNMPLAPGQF
Chain of UniProt P21917 (whole entry, looked up): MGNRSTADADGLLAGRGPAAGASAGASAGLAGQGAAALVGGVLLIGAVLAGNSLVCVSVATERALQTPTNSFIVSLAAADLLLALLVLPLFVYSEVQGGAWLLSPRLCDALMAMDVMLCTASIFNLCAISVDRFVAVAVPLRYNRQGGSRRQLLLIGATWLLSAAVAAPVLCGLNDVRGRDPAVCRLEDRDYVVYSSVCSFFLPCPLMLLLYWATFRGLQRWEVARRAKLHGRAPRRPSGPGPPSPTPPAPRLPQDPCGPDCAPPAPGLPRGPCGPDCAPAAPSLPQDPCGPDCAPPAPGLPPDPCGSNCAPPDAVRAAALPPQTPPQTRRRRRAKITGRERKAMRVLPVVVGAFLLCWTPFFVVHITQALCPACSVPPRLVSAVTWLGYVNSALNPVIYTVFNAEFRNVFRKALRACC
Chain of UniProt P08912 (whole entry, looked up): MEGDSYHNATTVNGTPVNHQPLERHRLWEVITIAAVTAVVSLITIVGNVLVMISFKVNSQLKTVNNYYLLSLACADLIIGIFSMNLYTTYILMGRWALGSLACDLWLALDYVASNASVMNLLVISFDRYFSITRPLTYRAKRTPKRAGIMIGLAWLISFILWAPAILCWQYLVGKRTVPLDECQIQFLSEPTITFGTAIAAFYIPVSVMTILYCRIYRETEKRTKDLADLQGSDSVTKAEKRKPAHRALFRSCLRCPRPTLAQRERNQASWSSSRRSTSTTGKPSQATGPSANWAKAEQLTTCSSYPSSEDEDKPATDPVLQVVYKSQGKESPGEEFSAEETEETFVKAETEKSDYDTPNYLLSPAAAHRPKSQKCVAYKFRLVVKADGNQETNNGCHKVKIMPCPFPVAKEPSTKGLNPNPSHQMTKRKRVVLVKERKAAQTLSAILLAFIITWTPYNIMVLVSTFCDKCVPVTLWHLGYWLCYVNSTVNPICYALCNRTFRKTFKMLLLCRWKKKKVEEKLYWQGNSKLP

Sample 1
Host: human
Matrix: microsomes or S9
Concentration: 2 µM
Time: 0.5 h
| Structure (SMILES) | remaining compound |
| --- | --- |
| COc1ccc(CCN(Cc2nc(-c3ccccc3)no2)Cc2nc(-c3ccccc3)no2)cc1OC | 0.367% |
| Cc1cc(C(C)(C)C)cc(C)c1CS(=O)(=O)CCCO | 64.3% |
| C/C(=C/c1cnc2ccsc2c1)c1cnccn1 | 16.6% |
| C1=NN(c2ccccc2)C2c3ccccc3OCC12 (centres unmarked) | 62.7% |
| CCC1CC(=O)c2c(Cl)cccc2N1S(=O)(=O)c1ccc2ccccc2c1 (centres unmarked) | 2.11% |
| CC1=C2C(=NC3=C(C(=O)CCC3)C2c2ccc(C#N)cc2)N(c2nc(C)cc(C)n2)N1 (centres unmarked) | 63.1% |

Sample 2
Cell line: HaCaT
Concentration: 100 µM
Time: 60 h
| SMILES | viability |
| --- | --- |
| CC(=O)OCC(=O)NCCCOc1cccc(CN2CCCCC2)c1 | 143% |
| COc1ncnc(NS(=O)(=O)c2ccc(N)cc2)c1OC | 134% |
| CN1CCN(c2c(F)cc3c(=O)c(C(=O)O)cn(CCF)c3c2F)CC1 | 141% |
| O=C(CCNNC(=O)c1ccncc1)NCc1ccccc1 | 135% |
| Oc1ncnc2[nH]ncc12 | 147% |
| COc1ccc(-c2coc3cc(O)ccc3c2=O)cc1 | 88.3% |

Sample 3
Compound: O=C(c1ccc(F)cc1)N1CC(COc2ccc(Br)cc2)(C(=O)O)C1
Read-out: cell-free assay
Concentration: 10 µM
| target | inhibition |
| --- | --- |
| DRD1 (Homo sapiens, UniProt P21728) | -52.3% |
| ADRA1B (Homo sapiens, UniProt P35368) | -14.6% |
| DRD4 (Homo sapiens, UniProt P21917) | -7.87% |
| CHRM5 (Homo sapiens, UniProt P08912) | -0.33% |
| DRD3 (Homo sapiens, UniProt P35462) | 3.89% |

Sample 4
Target: Insulin receptor (INSR, Homo sapiens, UniProt P06213)
Chain of UniProt P06213 (whole entry, looked up): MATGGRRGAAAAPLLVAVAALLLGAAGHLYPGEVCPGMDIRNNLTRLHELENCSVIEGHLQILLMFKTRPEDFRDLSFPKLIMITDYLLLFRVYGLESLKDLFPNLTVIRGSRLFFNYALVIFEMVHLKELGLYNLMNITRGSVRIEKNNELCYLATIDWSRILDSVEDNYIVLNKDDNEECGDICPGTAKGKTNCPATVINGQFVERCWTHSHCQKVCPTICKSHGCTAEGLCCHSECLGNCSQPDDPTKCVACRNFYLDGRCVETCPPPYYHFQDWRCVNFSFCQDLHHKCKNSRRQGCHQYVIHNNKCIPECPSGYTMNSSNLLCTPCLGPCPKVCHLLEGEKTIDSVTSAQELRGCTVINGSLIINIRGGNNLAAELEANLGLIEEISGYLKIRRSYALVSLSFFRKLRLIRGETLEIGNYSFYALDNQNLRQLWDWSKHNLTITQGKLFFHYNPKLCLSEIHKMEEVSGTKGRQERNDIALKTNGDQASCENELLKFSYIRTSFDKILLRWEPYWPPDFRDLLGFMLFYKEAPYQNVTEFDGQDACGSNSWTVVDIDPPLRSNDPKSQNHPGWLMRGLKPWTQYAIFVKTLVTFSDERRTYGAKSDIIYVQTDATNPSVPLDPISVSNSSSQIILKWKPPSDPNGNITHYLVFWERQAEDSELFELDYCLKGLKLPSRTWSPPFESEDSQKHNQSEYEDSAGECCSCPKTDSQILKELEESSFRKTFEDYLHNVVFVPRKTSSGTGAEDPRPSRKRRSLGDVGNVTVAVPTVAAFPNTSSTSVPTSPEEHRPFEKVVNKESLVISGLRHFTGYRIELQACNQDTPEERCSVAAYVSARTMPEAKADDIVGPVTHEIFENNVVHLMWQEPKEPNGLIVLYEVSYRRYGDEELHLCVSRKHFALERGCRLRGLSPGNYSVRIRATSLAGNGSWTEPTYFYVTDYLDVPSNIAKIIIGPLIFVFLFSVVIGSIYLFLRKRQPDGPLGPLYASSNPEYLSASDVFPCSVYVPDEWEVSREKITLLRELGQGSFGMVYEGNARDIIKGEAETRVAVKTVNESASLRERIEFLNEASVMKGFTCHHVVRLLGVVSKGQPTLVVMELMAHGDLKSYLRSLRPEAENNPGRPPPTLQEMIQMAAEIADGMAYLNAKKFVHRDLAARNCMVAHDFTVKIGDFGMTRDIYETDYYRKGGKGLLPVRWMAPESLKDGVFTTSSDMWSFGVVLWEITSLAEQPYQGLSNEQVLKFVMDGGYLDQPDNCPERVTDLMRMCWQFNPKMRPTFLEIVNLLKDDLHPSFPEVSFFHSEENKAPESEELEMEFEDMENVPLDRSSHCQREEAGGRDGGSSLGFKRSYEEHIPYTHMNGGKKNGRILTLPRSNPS
Read-out: enzyme activity
Mode: inhibitor
Concentration: 0.5 µM
Reference: control
| SMILES | remaining activity [%] |
| --- | --- |
| O=C1NC(=O)C(c2cn(CCCn3ccnc3)c3ccccc23)=C1Nc1ccccc1 | 84.4 |
| CCOC(=O)c1c(C)[nH]c(/C=C2\C(=O)Nc3ccccc32)c1C | 90.6 |
| Cc1cccc(-c2[nH]c(C(C)(C)C)nc2-c2ccc3c(c2)OCO3)n1 | 87.6 |
| Cc1nc(-c2ccccc2)c(-c2ccncc2)o1 | 85.6 |
| C#Cc1cccc(Nc2ncnc3cc(OCCOC)c(OCCOC)cc23)c1 | 102 |
| COc1cc2ncnc(Nc3ccc(Oc4ccccc4)cc3)c2cc1OC | 88.8 |
| CNC(=O)c1cc(Oc2ccc(NC(=O)Nc3ccc(Cl)c(C(F)(F)F)c3)cc2)ccn1 | 106 |
| Nc1ccc2ncnc(NCCc3ccc(Oc4ccccc4)cc3)c2c1 | 103 |
| CO[C@H]1C[C@@H]2CC[C@@H](C)[C@@](O)(O2)C(=O)C(=O)N2CCCC[C@H]2C(=O)O[C@H]([C@H](C)C[C@@H]2CC[C@@H](O)[C@H](OC)C2)CC(=O)[C@H](C)/C=C(\C)[C@@H](O)[C@@H](OC)C(=O)[C@H](C)C[C@H](C)/C=C/C=C/C=C/1C | 90.3 |
| O=C(O)c1ccc2c3c1cccc3c(=O)n1c3ccccc3nc21 | 91.5 |
| CN(C)c1ccc(C=C2C(=O)Nc3ccccc32)cc1 | 93.4 |
| Cc1ccc(NC(=O)c2ccc(CN3CCN(C)CC3)cc2)cc1Nc1nc(-c2cccnc2)cs1 | 99 |
| N#CC(C#N)=C(N)/C(C#N)=C/c1ccc(O)cc1 | 94.2 |
| COc1ccc(C(=O)Nc2sc3c(c2C(N)=O)CCCC3)cc1OC | 93.2 |
| CC(C)[C@H](CO)Nc1nc(Nc2cc(N)cc(Cl)c2)c2ncn(C(C)C)c2n1 | 85 |

Repeated from above (sample 4):
| SMILES | remaining activity [%] |
| --- | --- |
| O=C(O)c1ccc2c3c1cccc3c(=O)n1c3ccccc3nc21 | 91.5 |
| CN(C)c1ccc(C=C2C(=O)Nc3ccccc32)cc1 | 93.4 |
